Measured values from different studies.
Protocols differ between the studies behind these lines. Values joined by “and” are separate records of one study, mostly repeats; a detail may differ. ± gives the spread as reported.
Sequence of UniProt Q9UQM7 (whole entry, looked up): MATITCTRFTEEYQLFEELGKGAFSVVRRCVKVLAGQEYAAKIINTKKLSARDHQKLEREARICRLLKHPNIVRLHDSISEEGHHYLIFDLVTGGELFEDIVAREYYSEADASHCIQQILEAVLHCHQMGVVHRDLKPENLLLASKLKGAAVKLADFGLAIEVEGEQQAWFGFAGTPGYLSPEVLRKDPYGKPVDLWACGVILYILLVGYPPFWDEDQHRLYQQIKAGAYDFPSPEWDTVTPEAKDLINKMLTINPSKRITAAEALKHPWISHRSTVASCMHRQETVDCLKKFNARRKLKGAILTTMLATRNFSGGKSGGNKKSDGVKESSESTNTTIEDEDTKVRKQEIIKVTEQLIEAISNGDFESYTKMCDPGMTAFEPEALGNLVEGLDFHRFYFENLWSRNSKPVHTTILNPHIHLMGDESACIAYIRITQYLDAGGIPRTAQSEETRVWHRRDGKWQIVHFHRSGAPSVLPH

For Cc1cc(C(=O)Nc2nc3cccc(C)c3n2[C@H]2CCCCN(C(=O)/C=C/CN(C)C)C2)ccn1, “EC50 fold shift” read 0.45 fold and 0.69 fold (Trypanosoma brucei; cell growth, Alamar Blue; 2T1 overexpressing Tb927.11.5340; baseline: parental 2T1).
CC[C@H](C)[C@H](NC(=O)[C@H](CCCNC(=N)N)NC(=O)[C@H](CCCCN)NC(=O)[C@H](Cc1ccc(O)cc1)NC(=O)[C@H](CC(=O)O)NC(=O)[C@H](C)NC(=O)CNC(=O)CCOCCOCCOCCNC(=O)CN1CCN(CC(=O)O)CCN(CC(=O)O)CCN(CC(=O)O)CC1)C(=O)N[C@H](C(=O)N[C@@H](CC(C)C)C(=O)N[C@@H](CCCCN)C(=O)N[C@H](C(=O)N[C@@H](CC(N)=O)C(N)=O)C(C)C)[C@@H](C)O [copper-64 labelled] gave a tissue uptake of 22.8 ± 1.39 %ID/g (ex vivo gamma counting; C57BL/6J male mice, B16-F10 tumour, kidney; intravenous, 1.85 MBq, 5 min).
O=C1NC2(CC2)COc2ncc(F)cc2[C@H]2COCCN2c2ccn3ncc1c3n2 — result for “organ-to-brain weight ratio”: 156 ± 18.8% (Sprague-Dawley rat, male, kidneys; oral, 20 mg/kg/day, 4 weeks dosing, end of recovery).
For CC[C@H](C)[C@@H]([C@@H](CC(=O)N1CCC[C@H]1[C@H](OC)[C@@H](C)C(=O)N[C@H](C)[C@@H](O)c1ccccc1)OC)N(C)C(=O)[C@@H](NC(=O)[C@H](C(C)C)N(C)C(=O)OCc1ccc(NC(=O)[C@H](CCCNC(N)=O)NC(=O)[C@@H](NC(=O)CCCCCN2C(=O)CC(SC[C@H](NC(=O)[C@H](CC(=O)O)NC(=O)[C@H](Cc3ccc(O)cc3)NC(=O)[C@H](Cc3c[nH]c4ccccc34)NC(=O)[C@@H](N)CCCNC(=N)N)C(=O)O)C2=O)C(C)C)cc1)C(C)C (stereo partly drawn), concentration read “not detected” (C57BL/6 mouse, healthy, serum; intraperitoneal, 2.5 mg/kg, 6 h).
CC(C)C[C@@H](NC(=O)[C@@H](CCCNC(=N)N)NC(=O)[C@@H](Cc1c[nH]cn1)NC(=O)[C@@H](Cc1c[nH]c2ccccc12)NC(=O)[C@@H](Cc1c[nH]cn1)NC(=O)[C@@H](Cc1ccccc1)NC(=O)[C@H](NC(=O)[C@@H](Cc1ccc(O)cc1)NC(=O)CNC(=O)CNC(=O)CCOCCOCCOCCNC(=O)CN1CCN(CC(=O)O)CCN(CC(=O)O)CC1)[C@H](C)O)C(=O)N[C@H](CC(N)=O)C(=O)N1CCC[C@@H]1C(=O)O [gallium-68 labelled] has a tissue uptake of 0.87 ± 0.22 %ID/g (gamma counting; C57BL/6 mice, male, brain; intravenous, 1.85 MBq, 30 min).
CCCC[C@H]1C(=O)N(C)[C@@H](CCCC)C(=O)N[C@@H](CCCNC(=O)CN2CCN(CC(=O)O)CCN(CC(=O)O)CCN(CC(=O)O)CC2)C(=O)N[C@H](C(=O)NCC(N)=O)CSCC(=O)N[C@@H](Cc2ccc(O)cc2)C(=O)N(C)[C@@H](C)C(=O)N[C@@H](CC(N)=O)C(=O)N2CCC[C@H]2C(=O)N[C@@H](Cc2c[nH]cn2)C(=O)N[C@@H](CC(C)C)C(=O)N(C)CC(=O)N[C@@H](Cc2c[nH]c3ccccc23)C(=O)N[C@@H](CO)C(=O)N[C@@H](Cc2c[nH]c3ccccc23)C(=O)N1C [gallium-68 labelled] gave a tissue uptake of 2.15 ± 0.1 %ID/g (NOD/SCID mice with CHO-hPD-L1 xenograft, intestine; 30 min post injection).
CSCC[C@H](NC(=O)CNC(=O)[C@H](CCCCN)NC(=O)[C@H](CC(C)C)NC(=O)[C@@H]1CCCN1C(=O)[C@H](CO)NC(=O)[C@H](Cc1c[nH]cn1)NC(=O)[C@H](Cc1c[nH]c2ccccc12)NC(=O)[C@H](CCCNC(=N)N)NC(=O)[C@H](CC(C)C)NC(=O)[C@H](CCCNC(=N)N)NC(=O)[C@H](Cc1c[nH]c2ccccc12)NC(=O)[C@H](CS)NC(=O)CCCCCNC(=O)CN1CCN(CC(=O)O)CCN(CC(=O)O)CCN(CC(=O)O)CC1)C(=O)O [copper-64 labelled] gave a tissue uptake of 1.23 %ID/g (ex vivo biodistribution; BALB/c nude mice, ovaries; intravenous, dose not given, 2 h, Huh-7 tumour-bearing).
CC[C@H](C)[C@H](NC(=O)[C@H](CCCCN)NC(=O)CNC(=O)[C@H](CC(C)C)NC(=O)[C@H](Cc1ccccc1)NC(=O)[C@H](CCCCN)NC(=O)[C@H](CO)NC(=O)[C@H](Cc1ccccc1)NC(=O)[C@H](Cc1c[nH]c2ccccc12)NC(=O)[C@H](CCC(N)=O)NC(=O)[C@@H](NC(=O)[C@H](Cc1ccccc1)NC(=O)CCCCCNC(=O)CN1CCN(CC(=O)O)CCN(CC(=O)O)CCN(CC(=O)O)CC1)C(C)C)C(=O)N[C@@H](CCC(=O)O)C(=O)N1CCC[C@H]1C(=O)N[C@@H](CC(=O)O)C(=O)N[C@H](C(=O)N[C@@H](CO)C(=O)N[C@@H](CCC(N)=O)C(=O)N[C@H](C(=O)N[C@@H](CCC(N)=O)C(=O)N[C@@H](CC(=O)O)C(=O)N1CCC[C@H]1C(=O)N[C@@H](CC(N)=O)C(=O)N[C@@H](CC(=O)O)C(=O)N[C@@H](CCC(N)=O)C(=O)N[C@@H](Cc1ccc(O)cc1)C(=O)N[C@@H](CCC(=O)O)C(=O)N1CCC[C@H]1C(=O)N[C@@H](Cc1ccccc1)C(=O)O)C(C)C)C(C)C [copper-64 labelled] gave a tissue uptake of 1.15 ± 0.06 %ID/g (C57BL/6 male mouse, tumour-naive, blood; 24 h).
CN1Cc2cc(Cl)ccc2-n2c(nnc2C2CCN(c3cccc([18F])n3)CC2)C1 has a tissue uptake of 3.29 ± 0.72 %ID/g (C57BL/6 mouse male, blood; intravenous, dose not given, 5 min, with: blocking agent 10 mg/kg).
With C[C@H](O)[C@@H](NC(=O)[C@H]1CCCN1C(=O)[C@@H](CCCCN)NC(=O)[C@@H](CO)NC(=O)[C@@H](Cc1ccc(O)cc1)NC(=O)[C@@H](CC(N)=O)NC(=O)CCOCCOCCOCCNC(=O)CN1CCN(CC(=O)O)CCN(CC(=O)O)CCN(CC(=O)O)CC1)C(=O)N[C@H](CC(=O)O)C(=O)N[C@H](CCCNC(=N)N)C(=O)N[C@H](CCC(N)=O)C(=O)N[C@H](Cc1ccc(O)cc1)C(=O)N[C@H](Cc1c[nH]cn1)C(=O)N[C@H](Cc1ccccc1)C(N)=O [gallium-68 labelled] the tissue uptake was 0.19 ± 0.02 %ID/g (BALB/c nude mice U-87 MG tumour, liver; intravenous, 1.85 MBq, 1 h, radiolabelled).
N[C@H](C(=O)N1CCCC1)C1CCN(c2nccc3c(-c4ncc(Cl)cc4Cl)cccc23)CC1 has an inhibition of 32.5% (CAMK2A (Homo sapiens, UniProt Q9UQM7); kinase activity, inhibitor; 10 µM, with: ATP 1 mM).
With CC[C@H](C)[C@H](NC(=O)[C@@H](Cc1c[nH]c2ccccc12)NC(=O)[C@@H]1CCCN1C(=O)[C@H](CCCCN)NC(=O)[C@H](CCCCN)NC(=O)CCNC(=O)CCNC(=O)CN1CCN(CC(=O)O)CCN(CC(=O)O)CCN(CC(=O)O)CC1)C(=O)N[C@@H](C[Si](C)(C)C)C(=O)O [gallium-68 labelled] the tissue uptake was 0.24 ± 0.12 %ID/g (nude mouse HT-29 xenograft, stomach; 90 min).

A few entries again:
CC[C@H](C)[C@H](NC(=O)[C@H](CCCCN)NC(=O)CNC(=O)[C@H](CC(C)C)NC(=O)[C@H](Cc1ccccc1)NC(=O)[C@H](CCCCN)NC(=O)[C@H](CO)NC(=O)[C@H](Cc1ccccc1)NC(=O)[C@H](Cc1c[nH]c2ccccc12)NC(=O)[C@H](CCC(N)=O)NC(=O)[C@@H](NC(=O)[C@H](Cc1ccccc1)NC(=O)CCCCCNC(=O)CN1CCN(CC(=O)O)CCN(CC(=O)O)CCN(CC(=O)O)CC1)C(C)C)C(=O)N[C@@H](CCC(=O)O)C(=O)N1CCC[C@H]1C(=O)N[C@@H](CC(=O)O)C(=O)N[C@H](C(=O)N[C@@H](CO)C(=O)N[C@@H](CCC(N)=O)C(=O)N[C@H](C(=O)N[C@@H](CCC(N)=O)C(=O)N[C@@H](CC(=O)O)C(=O)N1CCC[C@H]1C(=O)N[C@@H](CC(N)=O)C(=O)N[C@@H](CC(=O)O)C(=O)N[C@@H](CCC(N)=O)C(=O)N[C@@H](Cc1ccc(O)cc1)C(=O)N[C@@H](CCC(=O)O)C(=O)N1CCC[C@H]1C(=O)N[C@@H](Cc1ccccc1)C(=O)O)C(C)C)C(C)C [copper-64 labelled] gave a tissue uptake of 1.15 ± 0.06 %ID/g (C57BL/6 male mouse, tumour-naive, blood; 24 h).
